Experimental data pooled from the literature.
Each line is one published result; not all experiments were run side by side. Values joined by “and” are separate records of one study, mostly repeats; a detail may differ. ± gives the spread as reported.
rep main protease: Replicase polyprotein 1ab, main protease (rep, Severe acute respiratory syndrome coronavirus 2, UniProt P0DTD1)
Spike glycoprotein: Spike glycoprotein (Severe acute respiratory syndrome coronavirus 2, UniProt P0DTC2)

`COc1cc(N2CCN(C)CC2)ccc1Nc1ncc2c(n1)N(C)c1ccccc1C(=O)N2` gave an inhibition of -0.288% (rep main protease; viral replication, mKate2 reporter; SARS-CoV-2; 20 µM).
The inhibition of `Cc1cc(=O)[nH]cc1C(=O)N1C[C@@]23CCCC[C@@]2(CN(C(=O)C[C@H]2NC(=O)NC2=O)C3)C1` is reported as 9.7% (rep main protease; enzyme activity, inhibitor; 5 µM).
With `CCc1c(C(=O)C(N)=O)c2c(OCC(=O)O)cccc2n1Cc1ccccc1` the remaining activity was 100% and 96.8% (Daboia russelii venom phospholipase A2; enzyme activity, inhibitor; PB population; 0.01 µM, together with: NOB substrate; relative to: venom alone).
`CC(C)=CCC[C@](C)(O[C@@H]1O[C@H](CO[C@@H]2O[C@H](CO)[C@@H](O)[C@H](O)[C@H]2O)[C@@H](O)[C@H](O)[C@H]1O)[C@H]1CC[C@]2(C)[C@@H]1[C@H](O)C[C@@H]1[C@@]3(C)CC[C@H](O[C@@H]4O[C@H](CO)[C@@H](O)[C@H](O)[C@H]4O)C(C)(C)[C@@H]3CC[C@]12C` has a koff of 0.207 s⁻¹ (Spike glycoprotein; binding, BLI).
`O=C1NC(=O)[C@@H](CC(=O)N2C[C@H](CO)C3(C2)CN(C(=O)c2cc4ccc(O)cc4[nH]2)C3)N1` has an inhibition of 16.1% (rep main protease; enzyme activity, inhibitor; 5 µM).
`CC(C)[C@H](O)C(=O)N[C@@H](C)C(=O)N[C@@H]1C(=O)N(C)CCc2ccccc21` gave an inhibition of -1.53% (rep main protease; reporter gene (Gaussia luciferase), inhibitor; 20 µM).
The Hill slope of `CNS(=O)(=O)C[C@H]1CC[C@H](N(C)c2[nH]cnc3nccc2-3)CC1.O=C(O)/C=C\C(=O)O` is reported as 1.28 ± 0.34 (Replicase polyprotein 1ab, nsp14 N7-methyltransferase (rep, Severe acute respiratory syndrome coronavirus 2, UniProt P0DTD1); N7-methyltransferase activity, inhibitor, Py-FLINT).
With `O=[N+]([O-])c1ccc(S(=O)(=O)N2CCN(c3ccnc4cc(Cl)ccc34)CC2)c([N+](=O)[O-])c1` the inhibition was -0.479% (rep main protease; viral replication, mKate2 reporter; SARS-CoV-2; 20 µM).
With `Cc1c[nH]c2ncc(C(=O)N[C@H]3[C@H](CNc4cc(=O)n5ccccc5n4)CCC34CCC4)cc12` the inhibition was 17.9% (rep main protease; enzyme activity, inhibitor; 5 µM, mean of runs).
For `COc1ccc(C[C@@H]2c3cc(Oc4cc(C[C@@H]5c6cc(O)c(OC)cc6CCN5C)ccc4O)c(OC)cc3CCN2C)cc1`, the koff was 0.131 s⁻¹ (Spike glycoprotein; binding).
For `O=C(NC[C@@H]1Cc2ccccc2CN1C(=O)[C@@H]1CCCS(=O)(=O)C1)c1cn[nH]c(=O)c1`, the inhibition was 12% (rep main protease; enzyme activity, inhibitor; 5 µM, mean of runs).
`Cc1nc(N)c2ncn(C3CCN(Cc4ccc(S(=O)(=O)F)cc4)CC3)c2n1` gave a kinact of 0.000467 s⁻¹ (Calmodulin-sensitive adenylate cyclase (cya, Bacillus anthracis, UniProt P40136)).
The inhibition of `C1=CCC2(CC1)COC(c1ccco1)OC2` (centres unmarked) is reported as -0.645% (rep main protease; viral replication, mKate2 reporter; SARS-CoV-2; 20 µM).
For `CC1(C)[C@@H](O)CC[C@]2(C)[C@H]3C(=O)C=C4[C@@H]5C[C@@](C)(C(=O)O)CC[C@]5(C)CC[C@@]4(C)[C@]3(C)CC[C@@H]12`, the koff was 0.0115 s⁻¹ (Spike glycoprotein; binding, BLI).

Some of these lines once more:
`O=C1NC(=O)[C@@H](CC(=O)N2C[C@H](CO)C3(C2)CN(C(=O)c2cc4ccc(O)cc4[nH]2)C3)N1` has an inhibition of 16.1% (rep main protease; enzyme activity, inhibitor; 5 µM).
With `O=[N+]([O-])c1ccc(S(=O)(=O)N2CCN(c3ccnc4cc(Cl)ccc34)CC2)c([N+](=O)[O-])c1` the inhibition was -0.479% (rep main protease; viral replication, mKate2 reporter; SARS-CoV-2; 20 µM).
